Published values pooled from the literature.
Lines come from different studies, so protocols differ. ± gives the spread as reported. Values after ≈ are worked out from the molar mass of the structure shown.

For `RRRRRRRRGGTTLFF`, cell proliferation read “decreased” (mouse CD4 T cells; peptide; concentration not given, 30 min preincubation, 96 h, with: anti-CD3/anti-CD28; baseline: control peptide).
CC(C)C(=O)O[C@H]1[C@H](C)OC(=O)[C@@H](NC(=O)c2cccc(NC=O)c2O)[C@@H](C)OC(=O)[C@@H]1Cc1ccccc1 gave an inhibition of over 80% (mouse splenocytes; IL-5 production, ELISA; 0.005 µM, with: ovalbumin; baseline: OVA-stimulated control).
For COc1ccc2[nH]cc(CCNc3nccc(Nc4cccc5c4ccn5C)n3)c2c1, “maximal cord disruption” read over 96% (ECFC and ADSC co-culture; endothelial tube formation; highest concentration tested; baseline: VEGF 20 ng/mL).
CC(=O)C1=C(O)[C@@H]2[C@H]3c4c[nH]c5cccc(c45)C[C@H]3C(C)(C)N2C1=O — result for “intracellular calcium increase”: “no effect” (SH-SY5Y cells; 10 µM, calcium store depletion, with: human prorenin 4 nM).
Under “antiproliferative activity change”, COc1ccc(C(=O)O[C@H]2[C@H](O[C@@H]3[C@@H](OC(C)=O)[C@H](O[C@H]4C[C@H]5[C@@H]6CC=C7C[C@@H](O)CC[C@]7(C)[C@H]6CC[C@]5(C)[C@@]4(O)[C@H](C)C(=O)CCC(C)C)OC[C@@H]3O)OC[C@@H](O)[C@@H]2O)cc1 is recorded as “no effect” (CHO NPC1-/- (M12); concentration not given; baseline: wild-type CHO).
Under “CRF-induced CREB phosphorylation”, `pertussis toxin` is recorded as “no effect” (rat hippocampal pyramidal neurons; refers to: pCREB Ser133; 500 ng/mL, 18 h pretreatment, with: CRF 40 nM).
Under “Ca2+ transient amplitude”, CCCCCCCCCC(=O)NC(CN1CCOCC1)C(O)c1ccccc1.Cl (stereo not drawn) is recorded as 43.7 ± 15% (U2OS; NAADP-evoked Ca2+ release; 10 µM, 10 min pretreatment, with: NAADP 100 nM microinjected; baseline: NAADP alone).
With NNC(=O)Cn1c2ccccc2c2cn[nH]c(=O)c21 the fold change was 0.283 (MCF7; RT-PCR, refers to: AKT; 5 µM, 48 h, normalised to β-actin; baseline: untreated).
`[Met(O)35]Aβ42` gave a viability decrease of 34 ± 1% (rat primary hippocampal neurons; MTT; 10 µM, 48 h; baseline: medium control).
With `lead` the selectivity ratio was 2.5 ± 2.44 (U-251 overexpressing EphA2; cell viability; baseline: wild type over overexpressing).
For CC(C)c1ccc2c(c1)CC[C@H]1[C@](C)(CN)CCC[C@]21C, the IC50 was 4.79 µM (WM-115; cell growth or viability, MTS; 24 h).
Under cellular uptake, CCN1C(=CC=CC=CC2=[N+](CCCCCC(=O)NCCN3C(=O)CC(SC[C@@H](NC(=O)[C@@H](CCCNC(=N)N)NC(=O)[C@@H](CCCNC(=N)N)NC(=O)[C@@H](CCCNC(=N)N)NC(=O)[C@@H](CCCNC(=N)N)NC(=O)[C@@H](CCCNC(=N)N)NC(=O)[C@@H](CCCNC(=N)N)NC(=O)[C@@H](CCCNC(=N)N)NC(=O)[C@@H](CCCNC(=N)N)NC(=O)[C@@H](CCCNC(=N)N)NC(=O)CNC(=O)[C@H](C)NC(=O)[C@H](CC(C)C)NC(=O)CNC(=O)[C@H](CC(C)C)NC(=O)[C@@H]4CCCN4C(=O)CCCCCNC(=O)[C@@H](CCC(=O)O)NC(=O)[C@@H](CCC(=O)O)NC(=O)[C@@H](CCC(=O)O)NC(=O)[C@@H](CCC(=O)O)NC(=O)[C@@H](CCC(=O)O)NC(=O)[C@@H](CCC(=O)O)NC(=O)[C@@H](CCC(=O)O)NC(=O)[C@@H](CCC(=O)O)NC(=O)CCC(=O)O)C(N)=O)C3=O)c3ccc(S(=O)(=O)[O-])cc3C2(C)C)C(C)(C)c2cc(S(=O)(=O)O)ccc21 (stereo partly drawn) is recorded as “decreased” (MDA-MB-231, 3D matrigel culture; confocal imaging; 1.5 µM, 20 to 24 h, with: GM6001 100 µM; baseline: no inhibitor).
The viability of COC(=O)C1=CO[C@@H](O)[C@@H]2C(CO)=CC[C@H]12 is reported as 64.4 ± 0.5% (SK-N-SH; neuroprotection, MTT; 0.6 µM, 24 h, with: 250 µM H2O2).
CN1C(=CC=CC=CC2=[N+](CCCCCC(=O)NCCCC[C@H](NC(=O)[C@H](CCCCNC(=O)COCCOCCOCCNC(=O)[C@H](Cc3ccccc3)NC(=O)[C@H](CCCNC(=N)N)NC(=O)[C@@H]3CCCN3C(=O)[C@H](CC(N)=O)NC(=O)[C@@H]3CCCN3C(=O)[C@H](CO)NC(=O)[C@@H](N)CCCCN)NC(=O)COCCOCCOCCNC(=O)[C@H](CCC(=O)O)NC(=O)[C@H](CCCNC(=N)N)NC(=O)[C@@H]3CCCN3C(=O)[C@H](CCCCN)NC(=O)[C@H](Cc3c[nH]cn3)NC(=O)[C@H](CCCNC(=N)N)NC(=O)[C@@H](N)CCC(N)=O)C(N)=O)c3ccc4ccccc4c3C2(C)C)C(C)(C)c2c1ccc1ccccc21 gave a Kd of 23 nM (OE33; flow cytometry; 1 h, 4 °C).
C=CCN=C=S has a responding neurons of 24.4% (rat DRG neurons; intracellular calcium rise; 50 µM).
For `leucinostatin B2`, the GI50 was 2.2 ± 0.7 nM (SUM185PE; sulforhodamine B; 48 h, LAR subtype TNBC).
Under IL-4 expression, NC12CC3CC(CC(C3)C1)C2 is recorded as “increased” (dendritic cells; flow cytometry; 10 µg/mL, 24 h; baseline: untreated cells).
For `leucinostatin D`, the GI50 was 2.3 ± 0.3 nM (MDA-MB-453; sulforhodamine B; 48 h, LAR subtype TNBC).
For `[Met(O)35]Aβ42`, “dendritic spine density” read about 70% (rat primary hippocampal neurons; 3 µM, 72 h; baseline: medium-treated).
The tumour uptake of CN[C@@](C)(C[18F])C(=O)O is reported as 5.6 ± 0.7 %ID/g (SCID mouse U87 xenograft; 15 min post injection).
`amyloid beta-42 Met35-sulfone` has a viability decrease of 23 ± 3% (rat primary hippocampal neurons; LDH release; 10 µM, 48 h; baseline: medium control).
CCS(=O)(=O)Nc1cccc(C(=C2CCCCC2)c2cnc[nH]2)c1 — result for “Ca2+ transient amplitude”: 41.1 ± 14% (U2OS; NAADP-evoked Ca2+ release; 10 µM, 10 min pretreatment, with: NAADP 100 nM microinjected; baseline: NAADP alone).
CO[C@@H]1C[C@@H](C[C@H]2CC[C@H](C)[C@H]([C@@H](C)C(=O)O)O2)O[C@]2(O[C@](C)([C@H]3CC[C@@](C)([C@@H]4O[C@@H]([C@H]5O[C@@](O)(CO)[C@H](C)C[C@@H]5C)C[C@@H]4C)O3)C[C@H]2C)[C@@H]1C: “K+ content change” 21 (LK sheep red cells; 0.03 µM, pH 7.4, 37 °C, unit not given, with: high-K medium; baseline: untreated cells).
With COc1cc(C2=CCCCc3c2ccc(OC)c3OP(=O)(O)O)cc(OC)c1OC the GI50 was 7.72 nM (SK-OV-3; cell growth or viability, SRB; 48 h).
The GI50 of `leucinostatin F` is reported as 2 ± 0.2 nM (SUM185PE; sulforhodamine B; 48 h, LAR subtype TNBC).
CC(C)[C@@H]1NC(=O)[C@H](CCCCN)NC(=O)[C@@H](Cc2c[nH]c3ccccc23)NC(=O)[C@H](Cc2ccc(O)cc2)NC(=O)[C@@H](NC(=O)[C@H](N)Cc2ccc3ccccc3c2)CSSC[C@@H](C(=O)N[C@H](C(N)=O)[C@@H](C)O)NC1=O has an ERK1/2 phosphorylation of 182 ± 35% (NCI-H720; ELISA; IC50 concentration, 30 min; baseline: unstimulated cells).
CN[C@@H]1C[C@H]2O[C@@](C)([C@@H]1OC)n1c3ccccc3c3c4c(c5c6ccccc6n2c5c31)C(=O)NC4: “early apoptotic cells” 5.47% (MCF7; annexin V/PI; 2.5 µM, 24 h).
CC[C@H](C)[C@H](NC(=O)[C@H](CCCNC(=N)N)NC(=O)[C@H](CCCNC(=N)N)NC(=O)[C@@H]1CCCN1C(=O)[C@@H]1CCCN1C(=O)[C@H](CCCNC(=N)N)NC(=O)[C@@H]1CCCN1C(=O)[C@H](CCCNC(=N)N)NC(=O)[C@@H]1CCCN1C(=O)[C@H](CC(C)C)NC(=O)[C@H](Cc1ccc(O)cc1)NC(=O)[C@@H]1CCCN1C(=O)[C@@H]1CCCN1C(=O)[C@H](CCCCN)NC(=O)[C@H](CC(=O)O)NC(=O)[C@@H](N)C(C)C)C(=O)N[C@@H](Cc1ccc(O)cc1)C(=O)N[C@@H](CC(N)=O)C(=O)N[C@@H](CCCNC(=N)N)C(N)=O has a growth-induction slope of -12 ± 2 M⁻¹ min⁻¹ (Escherichia coli T7 Express LysY/I; SAMP-Dep deep sequencing; concentration not given, 7.2 h, 37 °C, intracellularly expressed mutants, with: IPTG; more negative = more active).
With N.N.[Cl][Pt][Cl] the GI50 was 10000 ± 3700 nM (myeloid leukemia cells; trypan blue; 48 h).
Under “TGI mean graph midpoint”, O=C1NC(=O)/C(=C/C(=O)N2N=C(c3ccc4ccccc4c3)CC2c2ccc(Cl)cc2)S1 (stereo not drawn) is recorded as 51 µM (NCI-60 tumour cell panel; SRB).
With O=C1NC(=S)NC(=O)C1=Cc1cn(Cc2ccc3ccccc3c2)c2ccc(Cl)cc12 the γH2AX level was about 3 fold (HAP1 hpol η-proficient; immunoblot; 0.1 or 1 µM, with: cisplatin 0.5 µM; baseline: DMSO).
CC(C)=CC[C@@H](O)C1=CC(=O)c2c(O)ccc(O)c2C1=O has a therapeutic window of 1.61 (NIH3T3 in HEY/NIH microtissues; fibroblast toxicity; 168 h, chronic toxicity, unit not given; baseline: AC50 ATP over AC50 NanoLUC, day 7).
CCCCc1oc2ccccc2c1C(=O)c1cc(I)c(OCCN(CC)CC)c(I)c1 has an effective concentration of 2 µM (BHK; LBPA-positive structure number and size, confocal morphometry; 16 h).
With `leucinostatin A2` the GI50 was 4.4 ± 0.7 nM (SUM185PE; sulforhodamine B; 48 h, LAR subtype TNBC).
COC[C@@H]([C@H](O)[C@H](O)C(=O)NCC[C@H](C)c1nc(/C=C/C[C@@H]2O[C@]3(C[C@@H](O)[C@@H]2C)O[C@H]([C@H](C[C@H](O)[C@H](C)[C@H](O)[C@H](C)/C=C(C)/C(C)=C/C=C/C(C)=C\C#N)OC)[C@H](OP(=O)(O)O)C3(C)C)co1)N(C)C: phosphorylation “increased” (HEK-293T; Western blot, refers to: mTOR, S6K, GSK3, ERK; 50 nM, 30 min, with: insulin 100 nM).
Under “Ca2+ transient amplitude”, CC(=O)SCC(Cc1ccccc1)C(=O)NCC(=O)OCc1ccccc1 (stereo not drawn) is recorded as 16.6 ± 10% (U2OS; NAADP-evoked Ca2+ release; 10 µM, 10 min pretreatment, with: NAADP 100 nM microinjected; baseline: NAADP alone).
The ID50 of CCCCCCCCOC(=O)c1ccccc1C(=O)OCCCCCCCC is reported as 60.1 ± 5.39 µg/mL (≈ 154 µM) (mES-D3 cell; cardiomyocyte differentiation, RT-PCR, refers to: MHC; 240 h).
Cc1nc(N=Nc2ccc(S(=O)(=O)[O-])cc2S(=O)(=O)[O-])c(COP(=O)([O-])[O-])c(C=O)c1O.[Na+].[Na+].[Na+].[Na+]: “Ca2+ transient amplitude” 24.2 ± 2.1% (U2OS; NAADP-evoked Ca2+ release; 10 µM, 10 min pretreatment, with: NAADP 100 nM microinjected; baseline: NAADP alone).
Cc1sc2c(c1C)C(c1ccc(Cl)cc1)=N[C@@H](CC(=O)OC(C)(C)C)c1nnc(C)n1-2: cell proliferation “inhibited” (rat cardiac fibroblasts; MTT; 0.2 µM, 1 h pretreatment then 12 or 24 h, with: angiotensin II).

Some of these lines once more:
With O=C1NC(=S)NC(=O)C1=Cc1cn(Cc2ccc3ccccc3c2)c2ccc(Cl)cc12 the γH2AX level was about 3 fold (HAP1 hpol η-proficient; immunoblot; 0.1 or 1 µM, with: cisplatin 0.5 µM; baseline: DMSO).
CC(C)=CC[C@@H](O)C1=CC(=O)c2c(O)ccc(O)c2C1=O has a therapeutic window of 1.61 (NIH3T3 in HEY/NIH microtissues; fibroblast toxicity; 168 h, chronic toxicity, unit not given; baseline: AC50 ATP over AC50 NanoLUC, day 7).
CCCCc1oc2ccccc2c1C(=O)c1cc(I)c(OCCN(CC)CC)c(I)c1 has an effective concentration of 2 µM (BHK; LBPA-positive structure number and size, confocal morphometry; 16 h).
With `leucinostatin A2` the GI50 was 4.4 ± 0.7 nM (SUM185PE; sulforhodamine B; 48 h, LAR subtype TNBC).
COC[C@@H]([C@H](O)[C@H](O)C(=O)NCC[C@H](C)c1nc(/C=C/C[C@@H]2O[C@]3(C[C@@H](O)[C@@H]2C)O[C@H]([C@H](C[C@H](O)[C@H](C)[C@H](O)[C@H](C)/C=C(C)/C(C)=C/C=C/C(C)=C\C#N)OC)[C@H](OP(=O)(O)O)C3(C)C)co1)N(C)C: phosphorylation “increased” (HEK-293T; Western blot, refers to: mTOR, S6K, GSK3, ERK; 50 nM, 30 min, with: insulin 100 nM).
Under “Ca2+ transient amplitude”, CC(=O)SCC(Cc1ccccc1)C(=O)NCC(=O)OCc1ccccc1 (stereo not drawn) is recorded as 16.6 ± 10% (U2OS; NAADP-evoked Ca2+ release; 10 µM, 10 min pretreatment, with: NAADP 100 nM microinjected; baseline: NAADP alone).
